Results from different studies.
Each line is one published result; not all experiments were run side by side. “And” joins repeats or separate records; there may be more than shown.
Chain of UniProt Q9ULC6 (whole entry, looked up): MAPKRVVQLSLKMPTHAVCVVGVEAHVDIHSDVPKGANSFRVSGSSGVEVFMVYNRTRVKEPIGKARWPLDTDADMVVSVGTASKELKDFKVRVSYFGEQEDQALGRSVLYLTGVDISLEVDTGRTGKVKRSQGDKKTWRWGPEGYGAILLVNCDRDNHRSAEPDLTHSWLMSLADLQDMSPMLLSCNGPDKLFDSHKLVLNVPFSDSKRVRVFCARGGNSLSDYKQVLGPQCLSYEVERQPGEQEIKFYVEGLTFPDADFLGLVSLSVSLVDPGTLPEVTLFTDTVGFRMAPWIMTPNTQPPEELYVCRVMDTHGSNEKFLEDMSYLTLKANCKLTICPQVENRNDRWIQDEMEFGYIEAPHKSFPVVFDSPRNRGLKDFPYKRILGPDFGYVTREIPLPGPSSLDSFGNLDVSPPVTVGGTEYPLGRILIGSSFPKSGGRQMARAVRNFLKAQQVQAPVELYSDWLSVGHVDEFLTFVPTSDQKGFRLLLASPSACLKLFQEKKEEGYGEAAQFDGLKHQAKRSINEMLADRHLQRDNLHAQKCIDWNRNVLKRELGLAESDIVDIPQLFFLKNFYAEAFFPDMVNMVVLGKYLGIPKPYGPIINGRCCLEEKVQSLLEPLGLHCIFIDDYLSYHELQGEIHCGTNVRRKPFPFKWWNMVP
Chain of UniProt Q96GW9 (whole entry, looked up): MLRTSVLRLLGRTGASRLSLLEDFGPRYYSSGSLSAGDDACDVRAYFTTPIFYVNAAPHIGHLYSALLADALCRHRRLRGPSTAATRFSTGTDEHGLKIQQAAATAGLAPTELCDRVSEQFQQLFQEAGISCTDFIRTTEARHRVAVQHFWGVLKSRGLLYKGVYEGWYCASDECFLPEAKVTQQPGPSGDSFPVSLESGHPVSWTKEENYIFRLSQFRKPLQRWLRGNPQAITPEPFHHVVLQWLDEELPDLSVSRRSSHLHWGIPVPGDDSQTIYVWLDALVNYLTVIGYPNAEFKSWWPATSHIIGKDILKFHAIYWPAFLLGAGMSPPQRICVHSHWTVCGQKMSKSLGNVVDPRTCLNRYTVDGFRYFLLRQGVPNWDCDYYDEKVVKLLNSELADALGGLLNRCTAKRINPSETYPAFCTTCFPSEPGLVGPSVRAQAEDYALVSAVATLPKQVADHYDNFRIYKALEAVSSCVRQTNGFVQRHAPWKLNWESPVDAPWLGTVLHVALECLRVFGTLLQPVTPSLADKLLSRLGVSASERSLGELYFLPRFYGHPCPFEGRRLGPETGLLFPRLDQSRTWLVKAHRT
Chain of UniProt O43148 (whole entry, looked up): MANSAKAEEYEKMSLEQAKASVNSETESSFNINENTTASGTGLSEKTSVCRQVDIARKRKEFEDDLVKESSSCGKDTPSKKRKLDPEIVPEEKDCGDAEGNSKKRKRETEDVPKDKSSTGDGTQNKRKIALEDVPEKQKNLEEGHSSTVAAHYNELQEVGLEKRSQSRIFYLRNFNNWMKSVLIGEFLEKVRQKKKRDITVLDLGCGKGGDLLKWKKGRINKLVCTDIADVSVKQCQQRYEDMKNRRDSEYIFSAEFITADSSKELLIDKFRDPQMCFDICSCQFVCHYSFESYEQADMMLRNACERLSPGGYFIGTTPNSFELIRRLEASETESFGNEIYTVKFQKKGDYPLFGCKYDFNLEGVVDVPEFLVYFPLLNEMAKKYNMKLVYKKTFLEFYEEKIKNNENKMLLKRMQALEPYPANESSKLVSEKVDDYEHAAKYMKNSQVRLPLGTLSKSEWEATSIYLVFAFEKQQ
Chain of UniProt P23458 (whole entry, looked up): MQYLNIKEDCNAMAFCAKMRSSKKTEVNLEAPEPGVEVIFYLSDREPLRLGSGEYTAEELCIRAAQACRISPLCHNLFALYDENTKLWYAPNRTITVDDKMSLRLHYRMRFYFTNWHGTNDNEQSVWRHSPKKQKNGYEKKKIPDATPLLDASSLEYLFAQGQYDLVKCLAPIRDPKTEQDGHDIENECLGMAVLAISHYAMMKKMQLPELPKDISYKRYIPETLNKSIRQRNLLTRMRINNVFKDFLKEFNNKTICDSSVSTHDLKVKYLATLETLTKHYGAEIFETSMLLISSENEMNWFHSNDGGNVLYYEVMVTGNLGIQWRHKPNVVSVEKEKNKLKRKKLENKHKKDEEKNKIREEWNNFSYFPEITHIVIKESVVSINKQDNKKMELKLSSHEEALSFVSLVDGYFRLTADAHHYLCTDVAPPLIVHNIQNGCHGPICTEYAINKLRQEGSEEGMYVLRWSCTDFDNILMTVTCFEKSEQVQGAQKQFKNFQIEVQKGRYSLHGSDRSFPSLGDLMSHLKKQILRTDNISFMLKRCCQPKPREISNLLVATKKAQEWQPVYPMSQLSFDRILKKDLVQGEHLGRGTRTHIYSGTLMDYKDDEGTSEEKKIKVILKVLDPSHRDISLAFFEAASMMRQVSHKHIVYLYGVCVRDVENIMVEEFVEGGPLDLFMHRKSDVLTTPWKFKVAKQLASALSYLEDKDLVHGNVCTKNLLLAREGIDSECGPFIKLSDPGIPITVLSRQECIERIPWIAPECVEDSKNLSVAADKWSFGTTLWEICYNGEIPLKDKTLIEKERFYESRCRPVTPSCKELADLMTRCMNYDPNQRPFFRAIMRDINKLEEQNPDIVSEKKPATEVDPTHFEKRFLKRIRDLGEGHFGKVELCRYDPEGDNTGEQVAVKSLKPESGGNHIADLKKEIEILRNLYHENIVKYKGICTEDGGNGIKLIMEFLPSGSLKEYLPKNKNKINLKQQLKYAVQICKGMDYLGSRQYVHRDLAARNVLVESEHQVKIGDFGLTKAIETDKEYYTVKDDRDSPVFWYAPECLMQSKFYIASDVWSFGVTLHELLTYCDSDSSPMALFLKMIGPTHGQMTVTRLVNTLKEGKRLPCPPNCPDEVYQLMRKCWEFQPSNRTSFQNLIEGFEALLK
Chain of UniProt P23975 (whole entry, looked up): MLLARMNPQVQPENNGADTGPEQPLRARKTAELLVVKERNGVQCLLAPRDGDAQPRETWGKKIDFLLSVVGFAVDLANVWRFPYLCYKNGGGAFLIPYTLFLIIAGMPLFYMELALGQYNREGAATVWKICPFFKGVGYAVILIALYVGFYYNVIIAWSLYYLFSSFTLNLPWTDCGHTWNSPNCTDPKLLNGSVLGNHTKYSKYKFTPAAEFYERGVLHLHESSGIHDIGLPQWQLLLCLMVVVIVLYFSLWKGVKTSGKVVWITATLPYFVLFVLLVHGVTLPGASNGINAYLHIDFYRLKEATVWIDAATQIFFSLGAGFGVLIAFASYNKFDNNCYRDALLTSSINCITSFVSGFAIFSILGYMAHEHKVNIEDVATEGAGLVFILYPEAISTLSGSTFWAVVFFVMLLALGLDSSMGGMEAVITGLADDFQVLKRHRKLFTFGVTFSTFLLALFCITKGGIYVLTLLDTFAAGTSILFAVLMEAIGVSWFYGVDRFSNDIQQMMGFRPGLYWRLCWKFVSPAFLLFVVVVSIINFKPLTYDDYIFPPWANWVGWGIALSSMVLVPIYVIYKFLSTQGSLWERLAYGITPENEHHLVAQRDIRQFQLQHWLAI
Chain of UniProt Q9EP89 (whole entry, looked up): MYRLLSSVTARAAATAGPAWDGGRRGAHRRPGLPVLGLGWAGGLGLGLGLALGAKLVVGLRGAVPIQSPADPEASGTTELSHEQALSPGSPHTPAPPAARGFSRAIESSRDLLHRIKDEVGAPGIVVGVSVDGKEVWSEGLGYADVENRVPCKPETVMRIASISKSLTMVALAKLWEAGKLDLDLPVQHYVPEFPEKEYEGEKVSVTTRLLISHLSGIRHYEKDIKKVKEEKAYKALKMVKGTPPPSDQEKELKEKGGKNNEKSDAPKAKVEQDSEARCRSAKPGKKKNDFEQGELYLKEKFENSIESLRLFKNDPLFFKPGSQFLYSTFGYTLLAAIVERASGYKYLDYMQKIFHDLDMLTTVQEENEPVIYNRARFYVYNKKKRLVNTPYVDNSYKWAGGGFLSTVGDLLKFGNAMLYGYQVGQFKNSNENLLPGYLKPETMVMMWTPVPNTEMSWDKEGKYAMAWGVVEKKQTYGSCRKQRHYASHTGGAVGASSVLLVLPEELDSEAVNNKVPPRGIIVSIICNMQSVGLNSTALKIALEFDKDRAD
Chain of UniProt P41145 (whole entry, looked up): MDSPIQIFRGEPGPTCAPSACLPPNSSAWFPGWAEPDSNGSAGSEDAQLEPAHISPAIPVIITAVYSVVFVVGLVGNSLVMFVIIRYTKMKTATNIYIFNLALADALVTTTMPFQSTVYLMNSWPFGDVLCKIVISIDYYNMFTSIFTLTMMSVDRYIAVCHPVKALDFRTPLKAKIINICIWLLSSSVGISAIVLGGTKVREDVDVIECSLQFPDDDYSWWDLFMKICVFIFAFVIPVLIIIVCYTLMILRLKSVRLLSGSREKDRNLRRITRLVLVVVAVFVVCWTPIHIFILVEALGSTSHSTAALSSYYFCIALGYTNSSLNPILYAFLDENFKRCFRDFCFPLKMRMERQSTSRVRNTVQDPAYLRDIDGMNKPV
Chain of UniProt Q13555 (whole entry, looked up): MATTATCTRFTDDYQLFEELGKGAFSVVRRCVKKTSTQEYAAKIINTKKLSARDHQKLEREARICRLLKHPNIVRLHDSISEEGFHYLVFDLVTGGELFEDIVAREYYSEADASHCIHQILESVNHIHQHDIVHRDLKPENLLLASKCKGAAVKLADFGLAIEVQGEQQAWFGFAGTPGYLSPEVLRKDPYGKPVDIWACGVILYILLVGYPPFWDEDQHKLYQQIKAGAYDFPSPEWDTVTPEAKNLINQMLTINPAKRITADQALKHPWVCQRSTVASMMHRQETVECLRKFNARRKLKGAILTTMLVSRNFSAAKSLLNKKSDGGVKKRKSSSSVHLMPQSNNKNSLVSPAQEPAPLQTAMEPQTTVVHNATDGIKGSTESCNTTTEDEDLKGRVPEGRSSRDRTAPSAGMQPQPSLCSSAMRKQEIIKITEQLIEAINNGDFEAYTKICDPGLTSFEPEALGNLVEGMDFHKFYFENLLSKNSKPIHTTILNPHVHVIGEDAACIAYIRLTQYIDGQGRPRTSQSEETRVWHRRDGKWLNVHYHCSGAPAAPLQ

Compound	target	assay	test system	conditions	how to read	endpoint	result
N[C@H](C(=O)N1CCCC1)C1CCN(c2nccc3c(-c4ncc(Cl)cc4Cl)cccc23)CC1	PADI1 (Homo sapiens, UniProt Q9ULC6)	enzyme activity		0.0983 µM, added: Ca2+ 0.25 mM		kcat	0.225 s⁻¹ and 0.233 s⁻¹
O=C1NC(=O)c2c1c1cc(F)c[n+]3c1c1c2c2cc(O)ccc2[n]1[Ru-4]312([N]=C=S)[S+]3CC[S+]1CC[S+]2CC3 (stereo not drawn)	CAMK2G (Homo sapiens, UniProt Q13555)	enzyme activity		100 nM, human enzyme, added: 10 µM ATP	relative to: untreated	remaining activity	5%
O=C(CN1CN(c2ccccc2)C2(CCN(C(=O)c3cnc4[nH]ncc4c3)CC2)C1=O)NCC(F)(F)F	Tyrosine-protein kinase JAK1, JH2 pseudokinase domain (JAK1, Homo sapiens, UniProt P23458)	inhibitor		concentration not given		inhibition	< 50%
Fc1ccc2[nH]c(NCCCN[C@@H]3CCOc4c(Cl)cc(Cl)cc43)nc2n1	MARS2 (Homo sapiens, UniProt Q96GW9)	enzyme activity			relative to: human IC50 over T. brucei IC50	selectivity ratio	> 2
O=C(Cc1ccc(Cl)c(Cl)c1)N1CCN(CCO)[C@@H]2COC[C@H](N3CCCC3)[C@H]21 (relative stereo)	OPRK1 (Homo sapiens, UniProt P41145)	agonist		0.3333 h		Emax	89%
CSCC[C@@H](N)C(=O)N[C@H](C)C(=O)N[C@H](C)C(=O)N[C@@H](C(=O)N[C@H](C)C(=O)NCC(=O)N[C@H](CC(C)C)C(=O)N[C@H](Cc1ccc(O)cc1)C(=O)NCC(=O)N[C@H](CC(C)C)C(=O)NCC(=O)N[C@H](CCC(=O)O)C(=O)N[C@H](CC(=O)O)C(=O)N[C@H](CCCNC(=N)N)C(=O)N[C@H](CCC(N)=O)C(=O)N[C@H](Cc1c[nH]cn1)C(=O)N[C@H](CCCNC(=N)N)C(=O)N[C@H](CCCCN)C(=O)N[C@H](CCCCN)C(=O)N[C@H](CCC(N)=O)C(N)=O)C(C)C	Sh, DEL6-46 (Drosophila melanogaster, UniProt P08510)	ion current, blocker, inside-out patch clamp		+90 mV		Hill coefficient	0.83
CN(C)[C@H]1C[C@@]23CC[C@@]4(O2)C(=CC[C@]2(C)[C@@H](c5ccc6ccncc6c5)CC[C@H]24)C=C3[C@@H](O)[C@@H]1O	EIF2AK2 (Homo sapiens, UniProt P19525)	ATP probe labelling, inhibitor, KiNativ profiling		1 µM		inhibition	2.7%
CC(C)CC(O)(CC(C)C)c1cn(C(=O)N2CCCC2)nn1	Serine beta-lactamase-like protein LACTB, mitochondrial (Lactb, Mus musculus, UniProt Q9EP89)		mouse, brain	concentration not given	relative to: vehicle over compound	activity-based probe labelling ratio	2.62
O=C(NC1CCN(c2ncnc3[nH]cnc23)CC1)c1cccc(NS(=O)(=O)c2ccc(C(F)(F)F)cc2)c1	RNMT (Homo sapiens, UniProt O43148)	enzyme activity, inhibitor		0.1953 µM		inhibition	7.15%
CCc1nnc(-c2c(OC)cc(-c3cnc4cc(-c5cnn(C)c5)ccn34)cc2OC)o1	SLC6A2 (Homo sapiens, UniProt P23975)	antagonist radioligand, radioligand binding		10 µM, SafetyScreen44 norepinephrine transporter replicate 2	lower = stronger displacement	remaining binding	106%
CS(C)(=O)=Nc1ccc(-c2ccc(-c3nc4cc(O[C@@H]5CO[C@H]6[C@@H]5OC[C@H]6O)[nH]c4cc3F)cc2)cc1	EPHB3 (Homo sapiens, UniProt P54753)	enzyme activity, inhibitor		10 µM		inhibition	13%
CC(C)[C@H]1NC(=O)C[C@H]2/C=C/CCSSC[C@@H](NC1=O)C(=O)N[C@H](Cc1cccc3ccccc13)C(=O)NCC(=O)O2	PRKCD (Homo sapiens, UniProt Q05655)	enzyme activity, inhibitor		10 µM		inhibition	6.7%
